Measurements collected from several papers.
± marks the error that the study gave.
Target: Aurora kinase B (AURKB, Homo sapiens, UniProt Q96GD4)
Chain of UniProt Q96GD4 (whole entry, looked up): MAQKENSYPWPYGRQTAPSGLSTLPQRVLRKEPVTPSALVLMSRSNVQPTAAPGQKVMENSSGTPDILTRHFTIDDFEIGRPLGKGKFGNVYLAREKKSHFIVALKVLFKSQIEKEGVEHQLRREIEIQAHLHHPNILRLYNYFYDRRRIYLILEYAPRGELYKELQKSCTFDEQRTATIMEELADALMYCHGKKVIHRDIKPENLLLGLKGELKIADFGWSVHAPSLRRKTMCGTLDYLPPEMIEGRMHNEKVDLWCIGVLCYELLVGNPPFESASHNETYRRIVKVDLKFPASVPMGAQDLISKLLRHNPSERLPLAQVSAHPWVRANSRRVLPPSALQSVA

| Compound | test | test system | conditions | how to read | quantity | value |
| --- | --- | --- | --- | --- | --- | --- |
| COc1ccc(F)cc1C(=O)NCc1ccc(-c2nn([C@@H](C)C(F)(F)F)c(N)c2C(N)=O)cc1 | kinase activity, inhibitor, HotSpot radiometric |  | 100 nM, added: ATP 10 µM |  | remaining activity | 85.9 ± 2.2% |
| Cc1cc(-c2ccnc3[nH]cc(F)c23)cc(F)c1[C@@]1(O)[C@H](C)CN(C(=O)CN)C[C@@H]1C | ATP/ADP probe binding, KiNativ | HEK293T lysate | 1 µM, Lys1 peptide |  | probe labelling inhibition | -13.9% |
| C=CC(=O)N1CCC[C@@H](n2nc(-c3ccc(Oc4ccccc4)cc3)c3c(N)ncnc32)C1 |  |  | 10 µM |  | remaining activity | 130% |
| CC[C@H](C)[C@H](NC(=O)[C@H](Cc1ccc(O)cc1)NC(=O)CNC(=O)[C@H](Cc1ccccc1)NC(=O)[C@H](CCSC)NC(=O)[C@@H](NC(=O)[C@H](CC(C)C)NC(=O)[C@H](Cc1ccc(O)cc1)NC(=O)[C@@H](NC(=O)[C@H](Cc1ccccc1)NC(=O)[C@@H]1CCCN1C(=O)[C@@H](N)CS)C(C)C)[C@@H](C)CC)C(=O)N[C@@H](Cc1ccc(O)cc1)C(=O)N[C@@H](CCCNC(=N)N)C(=O)N[C@@H](CC(C)C)C(=O)N[C@@H](CC(=O)O)C(=O)N[C@@H](CC(C)C)C(=O)NCC(=O)NCC(=O)N[C@@H](CO)C(=O)NCC(=O)NCC(=O)N[C@@H](CCCCN)C(=O)N[C@@H](Cc1ccccc1)C(=O)N[C@@H](CCC(=O)O)C(=O)N[C@@H](CCCNC(=N)N)C(=O)N[C@@H](CCC(N)=O)C(=O)O | degrader, immunoblotting | SUP-B15, HAL-01, RS4;11, BALL-1 | 24 h |  | concentration for complete degradation | 1 µM |
| O=C1NC(=O)/C(=C/c2ccc(-c3ccc(F)cc3O)o2)S1 | enzyme activity |  | 10 µM |  | remaining activity | 71% |
| COc1cc(F)ccc1-c1ncnc(Nc2cccc(C[S@](C)(=N)=O)c2)n1 | kinase activity |  | 10 µM, added: 10 µM ATP |  | remaining activity | 42% |
| Cc1ncsc1-c1ccc([C@H](C)NC(=O)[C@@H]2C[C@@H](O)CN2C(=O)[C@@H](NC(=O)CCCCCCCCC(=O)N(CCO)CCCOc2ccc3c(Nc4cc(CC(=O)Nc5cccc(F)c5)[nH]n4)ncnc3c2)C(C)(C)C)cc1 | degrader, western blot | HPAF-II cells | 1 µM |  | duration of degradation | ≤ 24 h |
| Cc1cc(-c2ccnc3[nH]cc(F)c23)cc(F)c1[C@@]1(O)[C@H](C)CN(C2CCS(=O)(=O)CC2)C[C@@H]1C | ATP/ADP probe binding, KiNativ | HEK293T lysate | 10 µM, Lys1 peptide |  | probe labelling inhibition | 67.2% |
| COc1cc(-c2cncc3c2CN(C)Cc2cc(N4CCNCC4)ccc2-3)cc(OC)c1OC | kinase activity |  | 1 µM, human enzyme, added: ATP 10 µM | reference: DMSO control | remaining activity | 94% |
| CC#CC(=O)N1CCC[C@H]1c1nc(-c2ccc(C(=O)Nc3ccccn3)cc2)c2c(N)nccn12 | kinase activity, inhibitor, HotSpot radiometric |  | 100 nM, added: ATP 10 µM |  | remaining activity | 88.3 ± 2.7% |

A few entries again:
| Compound | test | test system | conditions | how to read | quantity | value |
| --- | --- | --- | --- | --- | --- | --- |
| Cc1cc(-c2ccnc3[nH]cc(F)c23)cc(F)c1[C@@]1(O)[C@H](C)CN(C(=O)CN)C[C@@H]1C | ATP/ADP probe binding, KiNativ | HEK293T lysate | 1 µM, Lys1 peptide |  | probe labelling inhibition | -13.9% |
